Results pooled from the literature.
Numbered parts are unrelated; each lists some results of a single study.

Sample 1
Target: Sal-like protein 4, full length isoform B (SALL4, Homo sapiens, UniProt Q9UJQ4-2, residues 1-616)
Method: universal PBM
Form: double-stranded DNA, one strand shown
Matrix: in vitro
Concentration: not given
Notes: 8-mer, flanks averaged, mean of replicates
Direction: higher = stronger binding
Residues (chain): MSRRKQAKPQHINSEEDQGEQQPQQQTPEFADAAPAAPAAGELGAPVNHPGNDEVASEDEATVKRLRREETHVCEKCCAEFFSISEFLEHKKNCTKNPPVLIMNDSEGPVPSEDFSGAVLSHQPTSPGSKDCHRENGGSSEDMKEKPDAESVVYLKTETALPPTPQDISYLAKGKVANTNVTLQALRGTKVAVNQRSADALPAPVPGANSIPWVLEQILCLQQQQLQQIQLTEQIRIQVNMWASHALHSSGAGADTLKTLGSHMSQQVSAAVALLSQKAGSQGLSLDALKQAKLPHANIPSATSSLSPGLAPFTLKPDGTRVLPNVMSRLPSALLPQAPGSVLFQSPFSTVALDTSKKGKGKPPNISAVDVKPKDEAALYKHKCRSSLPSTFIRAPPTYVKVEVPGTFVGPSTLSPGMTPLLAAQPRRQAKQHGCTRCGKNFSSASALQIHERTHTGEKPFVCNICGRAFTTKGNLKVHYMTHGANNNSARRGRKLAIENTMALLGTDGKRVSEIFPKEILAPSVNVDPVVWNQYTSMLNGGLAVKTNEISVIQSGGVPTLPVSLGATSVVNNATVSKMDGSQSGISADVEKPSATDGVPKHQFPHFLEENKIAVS
| Oligonucleotide | E-score |
| --- | --- |
| CTTATGGA | 0.176 |
| ACTGGAGA | -0.106 |
| GGAAATAC | 0.139 |
| CAACAGCC | -0.0719 |
| CCGGGATA | -0.128 |
| GTCTGACA | -0.0951 |
| AGGTCCTA | -0.129 |
| ACTTTATA | 0.349 |
| CGTCGTAC | 0.00321 |
| GTTCAAAC | 0.0322 |
| CCAGCTGA | -0.145 |
| CACGATGA | 0.0834 |

Sample 2
Target: Prothrombin, mature alpha-thrombin (F2, Homo sapiens, UniProt P00734)
Method: aptamer microarray, sandwich
Form: DNA with 2'F-ANA
Matrix: in vitro
Concentration: 200 nM
Notes: whole 15-mer aptamer, many near background
Added: Cy3 exosite-II aptamer, 400 nM
Direction: higher = stronger binding
Oligonucleotide: GGTTGGTGTGGTTGG
| Modification | mean fluorescence intensity |
| --- | --- |
| 2'F-ANA at 2 4 5 8 9 13 14 15 | 56.7 a.u. |
| 2'F-ANA at 3 4 6 7 9 10 11 13 14 15 | 147 a.u. |
| 2'F-ANA at 1 7 10 12 13 14 15 | 48.2 a.u. |
| 2'F-ANA at 2 5 8 9 11 12 14 15 | 47.1 a.u. |
| 2'F-ANA at 2 3 5 7 14 | 53.2 a.u. |
| 2'F-ANA at 3 4 5 6 7 11 14 15 | 51.4 a.u. |
| 2'F-ANA at 5 6 7 9 10 11 12 14 | 48.7 a.u. |
| 2'F-ANA at 1 2 3 6 10 14 15 | 53.4 a.u. |
| 2'F-ANA at 1 3 5 8 9 11 12 14 | 85.7 a.u. |
| 2'F-ANA at 2 3 4 9 14 | 251 a.u. |
| 2'F-ANA at 1 2 3 4 5 6 8 9 10 15 | 49.7 a.u. |

Sample 3
Target: Histone acetyltransferase KAT6A, winged helix 2, GST fusion (KAT6A, Homo sapiens, UniProt Q92794, residues 85-181)
Method: protein binding microarray
Form: double-stranded DNA, one strand shown
Matrix: in vitro
Concentration: not given
Notes: 8-mer, flanks averaged, mean of 2 arrays, mostly near background
Reference: not given
Direction: higher = stronger binding
Construct (chain): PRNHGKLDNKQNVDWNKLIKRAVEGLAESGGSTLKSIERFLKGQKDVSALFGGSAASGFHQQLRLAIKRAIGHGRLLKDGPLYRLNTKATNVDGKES
| Oligonucleotide | E-score |
| --- | --- |
| ACCCCTTA | -0.0551 |
| GTACAGCA | 0.108 |
| GAAGAGCA | 0.0398 |
| CACATATC | -0.129 |
| CATCCCGA | 0.0871 |
| CTGTTCCC | -0.0535 |
| ACCTTACA | -0.0634 |
| ACATTAAA | -0.00417 |
| CAAGAACC | 0.115 |
| CAATTGCC | -0.117 |
| CTGCCAAC | -0.054 |

Single results of other studies
| Molecule | target | test | test system | conditions | how to read | measurement | value |
| --- | --- | --- | --- | --- | --- | --- | --- |
| PhoQ, residues 284 288 289 292 302 303 QWGLFV | PhoP, residues 12 14 15 18 19 VHSCL (Escherichia coli, UniProt P23836) | Sort-seq, measured: YFP reporter | E. coli | PhoQ-PhoP variant library, added: 10 µM Mg2+ | reference: high Mg2+ state, higher = stronger signaling | fold induction | 1.75 |

A few entries again (sample 3):
| Oligonucleotide | E-score |
| --- | --- |
| CAAGAACC | 0.115 |
| ACCTTACA | -0.0634 |
| ACATTAAA | -0.00417 |
| CATCCCGA | 0.0871 |
